# Measured values of several laboratories.
# Numbers after ± are the reported error.
Compound,assay,test system,setting,tissue uptake
COc1ccc(Nc2nc(Nc3ccc(OCCOCC[18F])cc3)ncc2Br)cc1,,"ICR mice, S180 tumour, stomach","intravenous, 370 kBq, 60 min",0.45 ± 0.03 %ID
N#C[C@@H]1CCCN1C(=O)CNC(=O)c1ccnc2ccc(OCCCN3CCN(C(=O)CCc4ccc5c(c4)CN4CCN6CC(=O)[O][68Ga-]([O]C(=O)C4)([O]5)[O]c4ccc(CCC(=O)N5CCN(CCCOc7ccc8nccc(C(=O)NCC(=O)N9CCC[C@H]9C#N)c8c7)CC5)cc4C6)CC3)cc12,,"BALB/c nude mice, U-87 MG xenograft, heart","1 h, blocking, with: DOTA-FAPI-04 40 nmol/mouse co-injected",0.88 ± 0.24 %ID/g
CC(C)C[C@H](NC(=O)[C@@H](CCCCNC(=O)[C@@H](Cc1ccccc1)NC(=O)CCCCCCCNC(=O)CN1CCN(CC(=O)O)CCN(CC(=O)O)CCN(CC(=O)O)CC1)NC(=O)[C@H](Cc1ccc(O)cc1)NC(=O)[C@H](CO)NC(=O)[C@H](Cc1c[nH]c2ccccc12)NC(=O)[C@H](Cc1c[nH]cn1)NC(=O)[C@@H]1CCC(=O)N1)C(=O)N[C@@H](CCCNC(=N)N)C(=O)N1CCC[C@H]1C(=O)NCC(N)=O [indium-111 labelled],biodistribution,"male athymic nude mice, DU-145 prostate cancer xenograft, bone","intravenous, 0.037 MBq, 0.5 h post-injection",1.24 ± 0.24 %ID/g
O=C(NCC1OC2CCC=CCCC2O1)c1ccc([18F])nc1 (stereo not drawn),,"healthy female BALB/c nude mice, muscle","intravenous, 7.4 MBq per mouse, 5 min",2.1 ± 0.7 %ID/g
CCCC[C@H](NC(=O)CCCCCCCNC(=O)CN1CCN(CC(=O)O)CCN(CC(=O)O)CC1)C(=O)N[C@H]1CC(=O)NCCCC[C@@H](C(N)=O)NC(=O)[C@H](Cc2c[nH]c3ccccc23)NC(=O)[C@H](CCCNC(=N)N)NC(=O)[C@@H](Cc2ccccc2)NC(=O)[C@H](Cc2c[nH]cn2)NC1=O [fluorine-18 labelled],,"C57 mice B16-F10 melanoma, kidneys","intravenous, 0.37 MBq, 1 h",6.37 ± 0.68 %ID/g
CCCC[C@H](NC(=O)CNC(=O)CNC(=O)[C@H](CCCCNC(=O)[C@H](CC(N)=O)NC(=O)C(C)c1ccc(CC(C)C)cc1)NC(=O)CN1CCN(CC(=O)O)CCN(CC(=O)O)CCN(CC(=O)O)CC1)C(=O)N[C@H]1CC(=O)NCCCC[C@@H](C(N)=O)NC(=O)[C@H](Cc2c[nH]c3ccccc23)NC(=O)[C@H](CCCNC(=N)N)NC(=O)[C@@H](Cc2ccccc2)NC(=O)[C@H](Cc2c[nH]cn2)NC1=O (stereo partly drawn) [lutetium-177 labelled],,"C57 mice, tumour-bearing, blood",2 h,0.47 ± 0.1 %ID/g
Cc1cc(C)n(CCN(CCN)CCCCCCNC(=O)[C@@H](N)Cc2c[nH]cn2)n1.[99Tc+].[C-]#[O+].[C-]#[O+].[C-]#[O+],,"BALB/c nude mice, A549 xenograft, kidney","intravenous, 4 h",8.8 ± 0.46 %IA/g
O=C(NCC1OC2CCC=CCCC2O1)c1ccc(COCCOCCOCC[18F])cc1 (stereo not drawn),,"healthy female BALB/c nude mice, heart","intravenous, 7.4 MBq per mouse, 15 min",2.8 ± 0.2 %ID/g
CCCC[C@H](NC(=O)CNC(=O)CNC(=O)[C@H](CCCCNC(=O)[C@H](CC(=O)O)NC(=O)C(C)c1ccc(CC(C)C)cc1)NC(=O)CN1CCN(CC(=O)O)CCN(CC(=O)O)CCN(CC(=O)O)CC1)C(=O)N[C@H]1CC(=O)NCCCC[C@@H](C(N)=O)NC(=O)[C@H](Cc2c[nH]c3ccccc23)NC(=O)[C@H](CCCNC(=N)N)NC(=O)[C@@H](Cc2ccccc2)NC(=O)[C@H](Cc2c[nH]cn2)NC1=O (stereo partly drawn) [lutetium-177 labelled],,"C57 mice, tumour-bearing, lung","intravenous, 0.037 MBq, 24 h",0.38 ± 0.27 %ID/g

# A few entries again:
Compound,assay,test system,setting,tissue uptake
N#C[C@@H]1CCCN1C(=O)CNC(=O)c1ccnc2ccc(OCCCN3CCN(C(=O)CCc4ccc5c(c4)CN4CCN6CC(=O)[O][68Ga-]([O]C(=O)C4)([O]5)[O]c4ccc(CCC(=O)N5CCN(CCCOc7ccc8nccc(C(=O)NCC(=O)N9CCC[C@H]9C#N)c8c7)CC5)cc4C6)CC3)cc12,,"BALB/c nude mice, U-87 MG xenograft, heart","1 h, blocking, with: DOTA-FAPI-04 40 nmol/mouse co-injected",0.88 ± 0.24 %ID/g
